Assay results pooled from the literature.
Parts stem from different laboratories: compare values within a part only.

Block 1
Target: Interferon regulatory factor 3, full length, phosphomimetic (IRF3, Homo sapiens, UniProt Q14653, residues 1-427, S386D/S396D/S398D/S402D/T404D/S405D)
Technique: protein-binding microarray
Form: double-stranded DNA, one strand shown
Medium: in vitro
Concentration: 2540 nM top
Setting: 60-bp whole probe
With: salmon DNA 0.4 mg/ml
Relative to: random background probes
Direction: higher = stronger binding
All sequences stand within: GCCTAGCAC … GTCTTGATTCGCTTGACGCTGCTG
Residues (chain): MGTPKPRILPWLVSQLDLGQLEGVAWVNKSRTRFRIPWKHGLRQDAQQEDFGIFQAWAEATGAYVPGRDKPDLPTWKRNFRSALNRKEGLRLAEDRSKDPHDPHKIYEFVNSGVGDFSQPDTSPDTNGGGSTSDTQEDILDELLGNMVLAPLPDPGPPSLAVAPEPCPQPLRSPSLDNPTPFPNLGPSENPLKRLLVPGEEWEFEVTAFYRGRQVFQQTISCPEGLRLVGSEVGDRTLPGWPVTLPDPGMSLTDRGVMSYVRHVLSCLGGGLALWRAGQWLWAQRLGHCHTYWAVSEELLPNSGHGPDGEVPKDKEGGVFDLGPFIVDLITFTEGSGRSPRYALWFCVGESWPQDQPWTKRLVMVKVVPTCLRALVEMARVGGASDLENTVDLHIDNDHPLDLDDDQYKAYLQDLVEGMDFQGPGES
For `GAGGGTCTCCTTTTCCTGACGTGCTAG`, “fitted relative affinity” read 3.43 z-score.
`TTAGGGCTGCTTTTCCTTTAGTGCTAG` — result for “fitted relative affinity”: 0.64 z-score.
`GACGAACTGGGGTATCCAGACGTGCTA`: “fitted relative affinity” -0.187 z-score.
`GACGGTATCGACTATCGGGACGTGCTA`: “fitted relative affinity” 0.592 z-score.
`TTAGGTATCGGCCTGGGTTAGTGCTAG`: “fitted relative affinity” 0.0402 z-score.
`TTAGGTTACGACTATCGGTTAGTGCTA` — result for “fitted relative affinity”: 0.47 z-score.
Under “fitted relative affinity”, `TTAGATTTCGGGTTTCGACTAGTGCTA` is recorded as 2.51 z-score.
Under “fitted relative affinity”, `GACGGTTTCCTAATGCTGACGTGCTAG` is recorded as 6.66 z-score.
`TTAGGACTGGGTCTCGGCTAGTGCTAG` — result for “fitted relative affinity”: -0.965 z-score.
For `GTAGAACTGGGGTTTCGATTAGTGCTA`, “fitted relative affinity” read 1.4 z-score.
For `TTAGGTTTGGACTATCGGTTAGTGCTA`, “fitted relative affinity” read -0.273 z-score.
For `TCCCACAGTCGAAAGTCTGCGTGCTAG`, “fitted relative affinity” read -0.192 z-score.
For `TTAGATATCAGACGGGATTAGTGCTAG`, “fitted relative affinity” read -0.269 z-score.
`TCAGATTTCCACTTTCTACTGTGCTAG`: “fitted relative affinity” 2.55 z-score.
`TATTATTTGCCTTGCATTTTGTGCTAG`: “fitted relative affinity” 0.67 z-score.
`TCATCTCTGCTTGTATCACTGTGCTAG`: “fitted relative affinity” 1.22 z-score.
For `TCACCACTTTCTTTTGCACTGTGCTAG`, “fitted relative affinity” read 1.51 z-score.
`TTAGATATCGGGTATCGCTTAGTGCTA` — result for “fitted relative affinity”: 0.214 z-score.

Block 2
Target: RNA binding protein fox-1 homolog 2, RRM domain, GST-SBP tag (RBFOX2, Homo sapiens, UniProt O43251-10, residues 100-194)
Technique: RNA Bind-n-Seq
Form: RNA
Medium: in vitro
Concentration: 365 nM
Setting: natural RNA segment, single round, ends assumed
Relative to: no-protein control
Direction: higher = stronger binding
Target sequence (chain): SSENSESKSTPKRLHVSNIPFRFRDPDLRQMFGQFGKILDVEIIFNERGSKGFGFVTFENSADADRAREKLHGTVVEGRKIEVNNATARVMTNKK
`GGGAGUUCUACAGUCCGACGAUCUGUGGUGACAGACAAUGCUAAGGAGGGAUCGCUUUGCCUGCCGGGUUCUCAAGGCUCUCUACAGGUUGCCUCUUGUACUCAGAAGUAUUAAACACUGAUUAUUAAACCUUUGGAAUUCUCGGGUGCCAA` — result for “RBNS enrichment (R)”: 0.544.
For `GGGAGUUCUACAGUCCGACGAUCCUCUGCUUUACCUUCUUAAGCCACCUAAUUGUUGGCCCCACUACGGGUAGCCAGAGGCUUUGAGCCUCAUUUCCUUGCUCUGACUUCAAUAAAGACUUUUCAAUCAAACCUGGAAUUCUCGGGUGCCAA`, “RBNS enrichment (R)” read 0.271.
`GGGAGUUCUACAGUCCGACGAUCUAAAUUUGUUGCUAAUCUCUGAUAAUGAAGAUUCUUACUCUGAUUCUCAGCUGAGCUGUGAGGGCUUCCAGGGAAAAUGGAACAAAAUGGUGUUCUUAGGUAAUGGGUUGUGGAAUUCUCGGGUGCCAA` — result for “RBNS enrichment (R)”: 0.735.
`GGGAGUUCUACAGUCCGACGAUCAUGCCCUGCCAGAAGGCGCUGCCUUAAAUGGUCCUGUUAACUGCUGCCACCCGGCCGUGGCCCGCCCUGGUCAGGCUGCUUCCUUAAUCAAGAAAACUACCUGGUGAUGCUGGAAUUCUCGGGUGCCAA` — result for “RBNS enrichment (R)”: 0.265.
`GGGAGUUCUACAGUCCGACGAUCUAUUAUGCAAAAUUUAGAAGAAAAGUUAUUGGCAUGGUUGUUGCAUAUAGUUAAACUGAGAGUAAUUCAUCUGUGAAUCUGCUUUAAUUACCUGGUGAGUAACUUAGAAAUGGAAUUCUCGGGUGCCAA` — result for “RBNS enrichment (R)”: 2.65.
Under “RBNS enrichment (R)”, `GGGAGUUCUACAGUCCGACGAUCAACUGCUGUUCUGUUUCGUUGAUUGCAUCGAGCAUGUUUCUAUAUAAGGUGGGUACUCUGAGCAGCCUGCCCUGCCUCUCGUGCUUUGAAAUUCUUUUGGUAGAAAUCCCUGGAAUUCUCGGGUGCCAA` is recorded as 0.758.
`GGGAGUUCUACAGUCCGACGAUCUACCUGAAUGGAGAAUACAUCUUGUUUCUGAGUUUCAACACUAGCAUUUUUGGCUUACUCAUGGACAAAGUUCUGUAUAUAGUAUAAAGUCAUUAACAAGAAACAGGAUAUGGAAUUCUCGGGUGCCAA` — result for “RBNS enrichment (R)”: 0.625.
`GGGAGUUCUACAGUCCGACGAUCUUAGCCCAGUGUGUCAGCGUCCAUUGUUACUCAUCACUGCAUUGUUGGGCAAUUAGUUUGUAAUUUGUUUUAGGCAAUCACUAUAAAUUAUAAUUAUGGACACUGCAUCAUGGAAUUCUCGGGUGCCAA` — result for “RBNS enrichment (R)”: 1.69.

Block 3
Target: Ras GTPase-activating protein-binding protein 1, RRM domain (G3BP1, Homo sapiens, UniProt Q13283)
Chain of UniProt Q13283 (whole entry, looked up): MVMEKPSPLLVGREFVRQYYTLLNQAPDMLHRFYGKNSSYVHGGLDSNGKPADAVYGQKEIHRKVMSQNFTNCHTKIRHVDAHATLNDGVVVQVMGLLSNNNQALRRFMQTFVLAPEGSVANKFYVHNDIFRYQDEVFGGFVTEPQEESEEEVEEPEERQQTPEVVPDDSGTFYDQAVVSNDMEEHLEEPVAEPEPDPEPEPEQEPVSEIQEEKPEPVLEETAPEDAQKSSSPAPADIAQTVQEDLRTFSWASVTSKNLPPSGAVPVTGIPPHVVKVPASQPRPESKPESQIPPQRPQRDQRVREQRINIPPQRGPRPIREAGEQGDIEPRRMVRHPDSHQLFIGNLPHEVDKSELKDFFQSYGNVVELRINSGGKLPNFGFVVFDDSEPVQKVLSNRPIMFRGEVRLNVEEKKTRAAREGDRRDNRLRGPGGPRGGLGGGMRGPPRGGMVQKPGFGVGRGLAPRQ
Technique: RNA Bind-n-Seq
Form: RNA
Medium: in vitro
Concentration: 1 µM
Setting: whole 134-nt RNA, ends assumed
With: 150 mM KCl
Relative to: input library
Direction: higher = stronger binding
For `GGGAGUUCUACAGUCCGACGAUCCAAGUCCUGUGCUACACAUCGUAUGUACCGAAUCGGGUUGGGGUUGGGGUUGGGGAAAGUAUUAUGUUACGCCGUUCGGAUCUGCACUUCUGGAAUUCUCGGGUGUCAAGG`, the log2 enrichment was 1.28.
`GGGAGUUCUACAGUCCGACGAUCUGGGAGGUGUAUUUUGUUUAUUUUUUUAGCUCAUUUCCAGGGGUGGGAAUUUUUUUUUAAUAUGUGUCAUGAAUAAAGUUGUUUUUGAAAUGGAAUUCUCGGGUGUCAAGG` gave a log2 enrichment of 1.52.
`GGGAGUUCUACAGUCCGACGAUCCUGUGCUACACAUCGUAUGUACCGAAUCGGGGUUUUUUUGGGGUUUUUUUGGUUUUUUUGGAAAGUAUUAUGUUACGCCGUUCGGAUCUGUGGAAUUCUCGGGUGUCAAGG` has a log2 enrichment of -0.178.
The log2 enrichment of `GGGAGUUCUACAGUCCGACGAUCAAGUCCUGUGCUACACAUCGUAUGUACCGAAUCGGGAGGGAAAGGGUUUUUUUGGGAAAGUAUUAUGUUACGCCGUUCGGAUCUGCACUUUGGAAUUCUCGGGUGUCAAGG` is reported as 0.52.
The log2 enrichment of `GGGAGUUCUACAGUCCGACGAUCGUCCUGUGCUACACAUCGUAUGUACCGAAUCGGGGAAAAAGGGGAAAAAGGGGAGGGGAAAGUAUUAUGUUACGCCGUUCGGAUCUGCACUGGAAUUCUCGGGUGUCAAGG` is reported as 1.07.
The log2 enrichment of `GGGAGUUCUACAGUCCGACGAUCGUCCUGUGCUACACAUCGUAUGUACCGAAUCGGGGAAAAAGGGGAAAAAGGGAAAAAGGAAAGUAUUAUGUUACGCCGUUCGGAUCUGCAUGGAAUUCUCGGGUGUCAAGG` is reported as -0.0777.
`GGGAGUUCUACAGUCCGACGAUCCCUGUGCUACACAUCGUAUGUACCGAAUCGGGCCCCCCCGGCCCCCCCGGGGCCCCCCCGGAAAGUAUUAUGUUACGCCGUUCGGAUCUGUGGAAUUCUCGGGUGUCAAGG` has a log2 enrichment of -0.497.
`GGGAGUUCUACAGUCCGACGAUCUCAAGUCCUGUGCUACACAUCGUAUGUACCGAAUCGGGUUUGGGUUUGGUUUGGGAAAGUAUUAUGUUACGCCGUUCGGAUCUGCACUUCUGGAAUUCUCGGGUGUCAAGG` gave a log2 enrichment of -0.382.
`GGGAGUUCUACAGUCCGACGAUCUCCUGUGCUACACAUCGUAUGUACCGAAUCGGUUUUUUUGGUUUUUUUGGGUUUUUUUGGAAAGUAUUAUGUUACGCCGUUCGGAUCUGCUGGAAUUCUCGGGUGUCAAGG` has a log2 enrichment of -0.093.

Block 4
Target: Histone acetyltransferase KAT6A, winged helix 1, GST fusion (KAT6A, Homo sapiens, UniProt Q92794, residues 1-85)
Technique: protein binding microarray
Form: double-stranded DNA, one strand shown
Medium: in vitro
Concentration: not given
Setting: 8-mer, flanks averaged, mean of 2 arrays, mostly near background
Relative to: not given
Direction: higher = stronger binding
Residues (chain): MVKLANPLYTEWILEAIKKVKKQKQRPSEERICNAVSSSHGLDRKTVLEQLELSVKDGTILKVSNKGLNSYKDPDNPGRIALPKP
With `ACTTTCTA` the E-score was -0.11.
For `CATACTTA`, the E-score was -0.132.
For `CTTCCATA`, the E-score was -0.196.
With `AGTCTGAC` the E-score was -0.271.
`CGCGACGA` has an E-score of 0.154.
With `CCTGTGCC` the E-score was -0.0522.
The E-score of `CTTAATCC` is reported as -0.0953.
`AACCTCGT` gave an E-score of 0.00374.
`CCCCCGCC` has an E-score of 0.28.
For `CCCCGCTC`, the E-score was 0.255.
With `AAGCAGCG` the E-score was 0.0837.
`CGGCTCAA` has an E-score of 0.156.
`AGGGTGAC` has an E-score of -0.0783.
The E-score of `GCAATTAA` is reported as 0.0524.
With `TAACATAA` the E-score was -0.0222.
The E-score of `CTAACAAC` is reported as -0.0257.
With `ATGCCCCA` the E-score was -0.23.

Block 5
Target: Sal-like protein 4, full length isoform B (SALL4, Homo sapiens, UniProt Q9UJQ4-2, residues 1-616)
Technique: universal PBM
Form: double-stranded DNA, one strand shown
Medium: in vitro
Concentration: not given
Setting: 8-mer, flanks averaged, mean of replicates
Direction: higher = stronger binding
Construct (chain): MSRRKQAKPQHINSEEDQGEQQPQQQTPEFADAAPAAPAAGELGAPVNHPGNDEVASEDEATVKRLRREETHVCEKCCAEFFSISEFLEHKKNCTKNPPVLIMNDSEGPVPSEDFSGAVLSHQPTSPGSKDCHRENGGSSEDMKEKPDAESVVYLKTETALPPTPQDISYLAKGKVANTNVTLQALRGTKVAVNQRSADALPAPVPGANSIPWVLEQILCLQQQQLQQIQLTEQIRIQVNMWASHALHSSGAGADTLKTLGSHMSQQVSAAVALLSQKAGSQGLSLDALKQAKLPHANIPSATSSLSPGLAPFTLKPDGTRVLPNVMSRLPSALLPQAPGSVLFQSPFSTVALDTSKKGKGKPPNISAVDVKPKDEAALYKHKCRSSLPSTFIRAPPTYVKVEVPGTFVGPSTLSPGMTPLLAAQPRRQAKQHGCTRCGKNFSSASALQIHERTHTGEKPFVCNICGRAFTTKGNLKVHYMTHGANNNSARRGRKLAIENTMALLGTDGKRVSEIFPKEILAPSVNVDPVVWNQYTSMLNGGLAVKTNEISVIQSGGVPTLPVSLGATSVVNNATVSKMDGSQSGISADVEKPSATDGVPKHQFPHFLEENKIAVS
The E-score of `AATCCACT` is reported as 0.0323.
`ATTCAGAC` gave an E-score of 0.1.
`AACACACG` gave an E-score of 0.0631.
`CGCGTGAA` gave an E-score of -0.0777.
With `CGTAGGGA` the E-score was -0.0467.
`CCCAAGTA` gave an E-score of 0.0671.
With `CTAGTTCA` the E-score was 0.0708.
`CACAAACA` has an E-score of 0.19.
With `CAGACCCC` the E-score was -0.274.
For `GATAGAGA`, the E-score was 0.00129.
With `AGCCCCCG` the E-score was -0.375.
With `GAAAGGAC` the E-score was 0.117.
`AAATCTCG` has an E-score of 0.0787.
For `ACCTCGCA`, the E-score was -0.114.
`TCCTGAAA` has an E-score of 0.0739.
For `ACGAGTGC`, the E-score was -0.0694.
For `GATAACCA`, the E-score was 0.114.
`ATTTGATA` has an E-score of 0.305.
With `AAAACTTA` the E-score was 0.346.
With `ACCGCCTC` the E-score was -0.256.
`GTATGCGA` gave an E-score of 0.103.
The E-score of `CGGAGATA` is reported as 0.0203.
`ACACCACC` gave an E-score of -0.183.
For `ACGGATAG`, the E-score was -0.0982.
The E-score of `ATGGATCC` is reported as 0.0565.
